Results of several laboratories.
Every numbered part comes from another study and shows a few of its results, in no order.
Sequence of UniProt Q9H1R3 (whole entry, looked up): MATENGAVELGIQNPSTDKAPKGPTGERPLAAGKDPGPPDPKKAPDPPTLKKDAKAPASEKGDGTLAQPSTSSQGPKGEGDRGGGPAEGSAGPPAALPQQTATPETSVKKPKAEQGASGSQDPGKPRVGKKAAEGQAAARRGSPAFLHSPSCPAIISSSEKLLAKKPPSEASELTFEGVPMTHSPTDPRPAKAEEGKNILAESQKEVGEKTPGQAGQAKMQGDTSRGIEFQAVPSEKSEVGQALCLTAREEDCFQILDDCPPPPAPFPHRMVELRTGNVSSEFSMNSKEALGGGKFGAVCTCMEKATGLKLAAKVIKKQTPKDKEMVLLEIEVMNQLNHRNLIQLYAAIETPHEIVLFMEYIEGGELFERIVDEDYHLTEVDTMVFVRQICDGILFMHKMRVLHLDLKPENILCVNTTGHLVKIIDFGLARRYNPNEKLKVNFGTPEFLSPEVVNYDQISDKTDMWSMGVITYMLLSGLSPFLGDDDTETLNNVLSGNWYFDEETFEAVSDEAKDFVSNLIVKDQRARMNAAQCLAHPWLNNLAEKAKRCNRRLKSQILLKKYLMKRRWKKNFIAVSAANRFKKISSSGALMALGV
Sequence of UniProt O94804 (whole entry, looked up): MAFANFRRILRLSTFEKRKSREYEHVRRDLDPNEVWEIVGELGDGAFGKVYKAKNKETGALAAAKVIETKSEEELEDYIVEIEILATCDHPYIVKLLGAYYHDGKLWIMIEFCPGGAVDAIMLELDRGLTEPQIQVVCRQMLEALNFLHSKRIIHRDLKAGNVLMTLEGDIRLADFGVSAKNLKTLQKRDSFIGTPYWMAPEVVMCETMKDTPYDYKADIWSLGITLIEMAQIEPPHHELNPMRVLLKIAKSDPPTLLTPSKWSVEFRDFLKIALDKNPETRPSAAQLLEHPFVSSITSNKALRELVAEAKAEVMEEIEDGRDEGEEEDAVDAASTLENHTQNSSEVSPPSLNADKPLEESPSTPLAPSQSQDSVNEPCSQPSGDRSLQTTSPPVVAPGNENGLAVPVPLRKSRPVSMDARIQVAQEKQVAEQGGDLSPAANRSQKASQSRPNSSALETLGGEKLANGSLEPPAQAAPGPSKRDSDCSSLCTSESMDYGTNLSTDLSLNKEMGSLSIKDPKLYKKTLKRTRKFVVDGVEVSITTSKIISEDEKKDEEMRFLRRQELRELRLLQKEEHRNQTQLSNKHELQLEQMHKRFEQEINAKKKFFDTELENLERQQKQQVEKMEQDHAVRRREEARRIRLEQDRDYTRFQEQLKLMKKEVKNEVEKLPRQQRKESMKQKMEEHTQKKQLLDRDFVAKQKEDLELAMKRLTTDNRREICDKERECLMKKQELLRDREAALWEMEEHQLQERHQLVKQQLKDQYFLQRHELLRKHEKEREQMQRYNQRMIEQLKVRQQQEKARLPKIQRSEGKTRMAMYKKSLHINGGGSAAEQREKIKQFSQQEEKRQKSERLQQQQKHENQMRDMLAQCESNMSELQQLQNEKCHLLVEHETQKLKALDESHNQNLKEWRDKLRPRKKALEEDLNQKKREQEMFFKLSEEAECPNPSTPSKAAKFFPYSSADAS
Sequence of UniProt Q8N752 (whole entry, looked up): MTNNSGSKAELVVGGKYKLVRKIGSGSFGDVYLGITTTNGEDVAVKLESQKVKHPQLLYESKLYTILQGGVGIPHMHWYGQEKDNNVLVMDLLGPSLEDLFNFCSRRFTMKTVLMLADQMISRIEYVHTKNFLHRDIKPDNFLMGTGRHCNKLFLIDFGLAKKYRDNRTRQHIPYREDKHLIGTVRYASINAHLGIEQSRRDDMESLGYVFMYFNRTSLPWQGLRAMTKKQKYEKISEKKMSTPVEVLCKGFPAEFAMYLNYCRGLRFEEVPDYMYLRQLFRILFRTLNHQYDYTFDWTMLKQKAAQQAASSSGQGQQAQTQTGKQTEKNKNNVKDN
Sequence of UniProt Q9UK32 (whole entry, looked up): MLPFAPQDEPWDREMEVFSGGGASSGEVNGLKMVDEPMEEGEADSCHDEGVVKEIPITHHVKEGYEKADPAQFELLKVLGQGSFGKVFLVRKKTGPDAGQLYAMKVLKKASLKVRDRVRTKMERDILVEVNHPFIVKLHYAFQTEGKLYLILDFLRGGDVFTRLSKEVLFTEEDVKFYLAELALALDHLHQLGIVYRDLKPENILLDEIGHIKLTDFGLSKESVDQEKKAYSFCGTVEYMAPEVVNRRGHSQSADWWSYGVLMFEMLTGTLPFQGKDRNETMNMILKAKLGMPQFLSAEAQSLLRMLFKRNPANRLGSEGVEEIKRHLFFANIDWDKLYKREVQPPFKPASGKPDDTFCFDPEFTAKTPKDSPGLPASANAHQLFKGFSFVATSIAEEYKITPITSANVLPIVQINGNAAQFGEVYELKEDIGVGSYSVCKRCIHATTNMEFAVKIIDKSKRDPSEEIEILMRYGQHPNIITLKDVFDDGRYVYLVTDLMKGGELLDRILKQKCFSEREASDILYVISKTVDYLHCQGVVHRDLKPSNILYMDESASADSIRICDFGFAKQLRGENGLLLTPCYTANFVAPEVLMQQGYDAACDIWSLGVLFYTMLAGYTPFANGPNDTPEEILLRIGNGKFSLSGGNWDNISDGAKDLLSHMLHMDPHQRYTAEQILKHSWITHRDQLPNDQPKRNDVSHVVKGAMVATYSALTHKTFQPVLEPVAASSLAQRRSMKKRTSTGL

Series 1
Target: Cyclin-dependent kinase 6, with cyclin D1 (CDK6, Homo sapiens, UniProt Q00534)
Sequence of UniProt Q00534 (whole entry, looked up): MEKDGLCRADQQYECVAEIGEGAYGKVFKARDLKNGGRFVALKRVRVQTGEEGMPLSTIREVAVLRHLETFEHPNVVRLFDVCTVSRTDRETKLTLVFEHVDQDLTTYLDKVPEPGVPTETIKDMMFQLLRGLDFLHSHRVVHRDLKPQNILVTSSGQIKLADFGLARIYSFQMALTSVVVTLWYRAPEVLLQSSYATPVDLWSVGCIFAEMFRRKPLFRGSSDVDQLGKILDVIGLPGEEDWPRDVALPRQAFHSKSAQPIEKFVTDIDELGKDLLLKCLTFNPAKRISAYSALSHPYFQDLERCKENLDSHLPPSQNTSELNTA
Effect on: enzyme activity
Action: inhibitor
Concentration: 0.5 µM
Relative to: control
Endpoint: remaining activity
Nc1ncnc2n[nH]c(Nc3ccc(F)cc3)c12: 96.6%
O=c1c2ccccc2[nH]c(=S)n1CCN1CCC(=C(c2ccc(F)cc2)c2ccc(F)cc2)CC1: 98.7%
COc1cc2ncnc(Nc3ccc(F)c(Cl)c3)c2cc1OCCCN1CCOCC1: 98.7%
CO[C@H]1C[C@@H]2CC[C@@H](C)[C@@](O)(O2)C(=O)C(=O)N2CCCC[C@H]2C(=O)O[C@H]([C@H](C)C[C@@H]2CC[C@@H](O)[C@H](OC)C2)CC(=O)[C@H](C)/C=C(\C)[C@@H](O)[C@@H](OC)C(=O)[C@H](C)C[C@H](C)/C=C/C=C/C=C/1C: 99.8%
Cc1ccc(NC(=O)c2ccc(CN3CCN(C)CC3)cc2)cc1Nc1nc(-c2cccnc2)cs1: 98%
COc1ccc(C(=O)Nc2sc3c(c2C(N)=O)CCCC3)cc1OC: 95.1%
NCCNc1ncc(C(N)=O)c(Nc2cccc(C(F)(F)F)c2)n1: 94.6%
COc1cc2ncnc(Nc3ccc(Oc4ccccc4)cc3)c2cc1OC: 95.1%
COc1ccc(OC)c2c(=S)c3ccccc3[nH]c12: 102%
O=C(CCCc1ccc(-c2ccccc2F)cc1)Nc1ccc(O)cc1: 98.2%
Oc1ccc(-c2nc(-c3ccncc3)c(-c3ccc(F)cc3)[nH]2)cc1: 97.6%
Nc1ccc2ncnc(NCCc3ccc(Oc4ccccc4)cc3)c2c1: 101%
CN(C)c1ccc(C=C2C(=O)Nc3ccccc32)cc1: 101%
COc1ccc(CNC(=O)Nc2ncc([N+](=O)[O-])s2)cc1: 98.6%
Cn1c2ccccc2c2c3c(c4c5ccccc5n(CCC#N)c4c21)CNC3=O: 39.4%

Series 2
Compound: O=C(Nc1cccnn1)N1CC(C/C=C/c2cncc(Oc3ccc(C(F)(F)F)cn3)n2)C1
Effect on: cell-free assay
Technique: competition with immobilised ligand
Concentration: 1 µM
Endpoint: remaining binding
Ribosomal protein S6 kinase alpha-6, C-terminal kinase domain (RPS6KA6, Homo sapiens, UniProt Q9UK32): 89%
Casein kinase I isoform alpha-like (CSNK1A1L, Homo sapiens, UniProt Q8N752): 100%
Myosin light chain kinase 2, skeletal/cardiac muscle (MYLK2, Homo sapiens, UniProt Q9H1R3): 87%
Serine/threonine-protein kinase 10 (STK10, Homo sapiens, UniProt O94804): 94%

Series 3
Target: Protein C-ets-1, full length (ETS1, Homo sapiens, UniProt P14921, residues 1-441)
Sequence of UniProt P14921 (whole entry, looked up): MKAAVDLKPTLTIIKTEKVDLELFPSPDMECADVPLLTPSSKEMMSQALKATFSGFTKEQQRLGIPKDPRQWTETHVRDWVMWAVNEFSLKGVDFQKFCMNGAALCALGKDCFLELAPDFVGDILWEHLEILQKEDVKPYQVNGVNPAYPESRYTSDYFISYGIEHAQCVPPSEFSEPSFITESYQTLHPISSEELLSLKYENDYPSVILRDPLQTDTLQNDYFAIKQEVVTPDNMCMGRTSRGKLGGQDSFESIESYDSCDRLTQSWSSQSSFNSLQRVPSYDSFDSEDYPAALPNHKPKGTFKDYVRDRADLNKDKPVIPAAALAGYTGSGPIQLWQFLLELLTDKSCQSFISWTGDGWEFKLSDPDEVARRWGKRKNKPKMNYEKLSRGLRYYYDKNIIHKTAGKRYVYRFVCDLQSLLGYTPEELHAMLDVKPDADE
Technique: protein-binding microarray
Form: hairpin DNA
Sample: in vitro
Concentration: not given
Setting: whole hairpin DNA, median over replicate spots
Relative to: not given
Reading: higher = stronger binding
Endpoint: median fluorescence
GAGGCCAGCCGGAGGTTGCCTCCTGGCAACCTCCGGCTGGCCTCACACTC (5mC at 31): 2420 a.u.
GAGGCCAGCCTGAAGTTGCCTCCTGGCAACTTCAGGCTGGCCTCACACTC: 524 a.u.
GAGGCCTGTCGGAAGTTGCCTCCTGGCAACTTCCGACAGGCCTCACACTC: 3050 a.u.
GAGGCCCGTCGGAAGTTGCCTCCTGGCAACTTCCGACGGGCCTCACACTC (5mC at 7 37): 2680 a.u.
GAGGCCAATCGGAAGTTGCCTCCTGGCAACTTCCGATTGGCCTCACACTC: 3980 a.u.
GAGGCCAGTCGGAAGTGGCCTCCTGGCCACTTCCGACTGGCCTCACACTC: 3320 a.u.
GAGGCCAGCCGGAAATTGCCTCCTGGCAATTTCCGGCTGGCCTCACACTC: 8410 a.u.
GAGGCCCGTCGGAAGTTGCCTCCTGGCAACTTCCGACGGGCCTCACACTC (5mC at 7): 2510 a.u.

Series 4
Target: Hepatocyte nuclear factor 3-beta, forkhead domain (FOXA2, Homo sapiens, UniProt Q9Y261, residues 142-269)
Technique: protein-binding microarray
Form: double-stranded DNA, one strand shown
Sample: in vitro
Concentration: not given
Setting: k-mer, scored over probes, only values ≥0.25
Reading: higher = stronger binding
Endpoint: E-score
Residues (chain): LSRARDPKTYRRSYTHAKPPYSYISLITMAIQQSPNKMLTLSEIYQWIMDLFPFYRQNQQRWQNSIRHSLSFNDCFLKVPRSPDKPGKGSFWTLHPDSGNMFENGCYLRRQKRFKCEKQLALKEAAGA
GTTAATCA: 0.322
ATAACAAC: 0.373
ATCGTTTA: 0.29
CACATATC: 0.338
ATTAATAA: 0.275
ACATTTAA: 0.316
ACCAAATA: 0.299
TACGGTAA: 0.297

A few entries again (series 3):
GAGGCCAGCCGGAGGTTGCCTCCTGGCAACCTCCGGCTGGCCTCACACTC (5mC at 31): 2420 a.u.
GAGGCCAGCCTGAAGTTGCCTCCTGGCAACTTCAGGCTGGCCTCACACTC: 524 a.u.
